Experimental data pooled from the literature.
Numbered parts are unrelated; each lists some results of a single study.

Sample 1 — method: RNA Bind-n-Seq; form: RNA; sample: in vitro; tested at: 365 nM; reference: no-protein control; reading: higher = stronger binding
Target: RNA binding protein fox-1 homolog 2, RRM domain, GST-SBP tag (RBFOX2, Homo sapiens, UniProt O43251-10, residues 100-194)
Notes: natural RNA segment, single round, ends assumed
Constant ends, left off below: GGGAGUUCUACAGUCCGACGAUC … UGGAAUUCUCGGGUGCCAA
Residues (chain): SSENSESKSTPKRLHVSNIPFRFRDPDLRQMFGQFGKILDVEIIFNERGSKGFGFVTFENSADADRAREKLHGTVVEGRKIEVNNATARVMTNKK
| Sequence | RBNS enrichment (R) |
| --- | --- |
| UCUCACUACUGAGCACCGAUGUGUAUGAUACUACAGACUAUAUUAAAGUGGAGUAACAUUUCUUUCAUCUUUGUUUACACUCUCACUAGGACUCUGAACCAUGAUUGGAA | 0.33 |
| CAGUGCCGUUAAUAAACUUUAGAUACAAACCAACAACCACCAUUCUCCAGUAUACUACAGUGGGAAUCACUGAUCUAGUUAACGGCAGCACUCUUGGAUUAAUUCAAUUG | 0.496 |
| CCUGUCUGCCUGCCCAGCCAUGCUCCAUCGGCUGUGAGGGCAGUGCCCGGAGAGGCCAGAGGGUUGGAGCUGCAGGGACCCGUUUGGACCCACAGCCUCUGUUCUAGAGA | 0.582 |
| CUGUCUCUUUCCACUUUGUUGGCCCUUCCAGUGGGAUUAUCGAGCAUGUUGUUUUUUCAUAGUGCCUUUUUCCUUAUUUCAAGGGUUGCUUCUGAGUGGUGUUUUUUUUU | 0.428 |
| GGGGCAGCCUGCUGUCCCUCCCACCUGCACAGUGAUGCUGUCUGGUGGGGCCUCGUGGUGCCUAGGAGAUGAAGAUGAGGUUUUCCUUACCGUGUAAAUGAAUAUUUGUA | 0.238 |
| GGGCCACGGCCUCCAUCAUGCUGAAUGACGCCUUCCUUCUGCCCCACCCCAGAAAAUCACUGUGAAAUUUCAUGAUUGGCUUAAAGUGAAGGAAAUAAAGGUAAAAUCAC | 0.437 |
| ACACCUCUCCCCACGCAGAGGGGGAAUUCUGCCCUGGUGAAACAGACACUCCAGACAUGGGAGAAGGACUUUCUGGGAACACAGAGACCAAGAGGGAGAGAGGCUUCAGA | 0.448 |
| UCAAAAUUAUAAUGCAGUUCUAAUGGUCAGCAUAUUUUGAUAUUAAAUUUAAAGAUCACCUCUCUGCAUUUGUUUUUAAAUUAUGCUAAUACACCACACAUUAUGUUGGU | 0.352 |
| UAUUGAAGAUUUAAAGACAGUGGCACACACACUUGAACAAAAGCAAGCCCUCAGUGUUUCCAGCCAUUUGAACCUGGACAGAUGCAGCUGGGGAGGGCCAGAGGAAGUGG | 0.396 |
| GGAGAAGUUUACAUGGUGACUGUUCACCUGCAGUACUGUGGACUUUGAACAUUUUGUCCCCUUUCCAGUGAAAAACUAAAAAGUAGUCAUCUGCCAUUACUGUUAUUUGC | 0.232 |
| CGAGGUUUUAAAGGGUGCCAUGGGCUCUCACGUCCUUCGUGUUGCAGUAUUUAUUUUUACUGGGUGAGGAUUUUUCAACUUAACGUUUUAGGACUUAACCAAAUAACCAG | 0.409 |
| AUGGCUUUACUUUGGCUGUCUUUUCUUCUGUCAUGUGCGAAGGGAGUUUGUAACUUUUGGAACCGGAGAGCCCUGUUUCUUUGGCUGGGCGGUUAUGGCAGCUGAAGGCA | 1.3 |

Sample 2 — method: universal PBM; form: double-stranded DNA, one strand shown; sample: in vitro; tested at: not given; reading: higher = stronger binding
Target: Sal-like protein 4, full length isoform B (SALL4, Homo sapiens, UniProt Q9UJQ4-2, residues 1-616)
Notes: 8-mer, flanks averaged, mean of replicates
| Sequence | E-score |
| --- | --- |
| ACAGCGAC | -0.252 |
| ACCTGGTC | -0.24 |
| ATTATTCG | 0.344 |
| TATTAACA | 0.345 |
| CTCCACCC | -0.248 |
| AGTCCCCG | -0.106 |
| CACAACTG | -0.229 |
| CGACCTGC | -0.216 |
| CCGCCCCA | -0.173 |
| AACCGACT | -0.221 |
| ACATTTCT | 0.173 |
| ACGCTCTA | -0.159 |
| GAGACCGA | -0.279 |
| AAAGTGAT | 0.21 |
| ATTTTACG | 0.284 |
| AATTTGTG | 0.173 |
| ACCTTCAA | 0.21 |
| CCCCCAAC | -0.318 |
| ACCTGGAT | -0.174 |
| AGTCGTCA | -0.0543 |
| AACGGTCT | -0.111 |
| TCAAACAA | 0.124 |
| AAGAGGTA | 0.009 |
| AGCAGACT | 0.005 |
| GGAGAGCA | -0.0877 |

Sample 3 — method: competition protein-binding microarray; form: double-stranded DNA, one strand shown; sample: in vitro; tested at: 2 µM; with: Pho4 competitor, 0.05 µM; reading: higher = stronger binding; constant ends, left off below: … GTCTTGATTCGCTTGACGCTGCTG
Target: Centromere-binding protein 1, full length, His-tagged (CBF1, Saccharomyces cerevisiae, UniProt P17106, residues 1-351)
UniProt P17106, sequence (whole entry, looked up): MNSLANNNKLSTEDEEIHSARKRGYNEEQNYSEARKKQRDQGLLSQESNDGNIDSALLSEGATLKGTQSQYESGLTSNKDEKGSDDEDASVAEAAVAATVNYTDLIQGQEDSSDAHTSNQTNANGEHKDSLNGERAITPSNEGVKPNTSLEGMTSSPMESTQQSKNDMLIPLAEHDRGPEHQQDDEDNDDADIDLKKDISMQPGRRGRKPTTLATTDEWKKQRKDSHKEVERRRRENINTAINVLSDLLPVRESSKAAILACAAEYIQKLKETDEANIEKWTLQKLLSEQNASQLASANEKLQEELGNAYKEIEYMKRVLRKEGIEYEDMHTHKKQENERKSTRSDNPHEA
Notes: whole 60-bp probe, lowest competitor level
| Sequence | fluorescence intensity |
| --- | --- |
| CTGGGCCCGGGACCCCACGTGGGACGCGCGAGGACC | 504 a.u. |
| GCCTTTTCCATCGACCACGTTGACAAATACGGCATC | 150 a.u. |
| CTAACGAAGGTTTTTCACGTGTTGTACAAGCCAAGT | 1080 a.u. |
| TGCGCAACAACTTGTCACCCGACTTTATGTCTAGAA | 81.4 a.u. |
| TTGCTTGCAAACCGTCACATGCTTATAATCAACTTT | 825 a.u. |
| TGACTGAAGACGAATTACGTGCTTTTTTCCAACCTT | 78.2 a.u. |
| GTAAAGGTAAACCATCACGTGCTTTCGAAGATAAAT | 7000 a.u. |
| CATACCCAACCTTGGTCAGTGGGTGAAGATATTTGT | 70.6 a.u. |
| GTCTTGTCTCATTGTCACCAAACTTTCCCCACTTCA | 90 a.u. |
| GTCTTGTCTCATTGGTATGTGGGTGTCCCCACTTCA | 96.2 a.u. |
| AAATTACTAAGTTGTGATGTGGGTGACGCCGTATGA | 73.5 a.u. |
| GCACTGATGCAGCCGTGCGTGTAACTAAAACATTTA | 64.7 a.u. |
| AAAGCGGTAATTTTTCACGTGCAATCAAATATCTAT | 1740 a.u. |
| AAGTTTGTAATTTTCCTCGTGTCCATAGTGGAAGAT | 147 a.u. |
| CCTTACAGGAGATCGGACGTGTGAAATTATTGTTAC | 89.7 a.u. |
| AAATTACTAAGTTGGCCGGTGGGTGACGCCGTATGA | 64.4 a.u. |

Sample 4 — method: RNA Bind-n-Seq; form: RNA; sample: in vitro; tested at: 200 nM; notes: whole 134-nt RNA, ends assumed; with: 150 mM KCl; reference: input library; reading: higher = stronger binding
Target: Ras GTPase-activating protein-binding protein 1, full length (G3BP1, Homo sapiens, UniProt Q13283)
UniProt Q13283, sequence (whole entry, looked up): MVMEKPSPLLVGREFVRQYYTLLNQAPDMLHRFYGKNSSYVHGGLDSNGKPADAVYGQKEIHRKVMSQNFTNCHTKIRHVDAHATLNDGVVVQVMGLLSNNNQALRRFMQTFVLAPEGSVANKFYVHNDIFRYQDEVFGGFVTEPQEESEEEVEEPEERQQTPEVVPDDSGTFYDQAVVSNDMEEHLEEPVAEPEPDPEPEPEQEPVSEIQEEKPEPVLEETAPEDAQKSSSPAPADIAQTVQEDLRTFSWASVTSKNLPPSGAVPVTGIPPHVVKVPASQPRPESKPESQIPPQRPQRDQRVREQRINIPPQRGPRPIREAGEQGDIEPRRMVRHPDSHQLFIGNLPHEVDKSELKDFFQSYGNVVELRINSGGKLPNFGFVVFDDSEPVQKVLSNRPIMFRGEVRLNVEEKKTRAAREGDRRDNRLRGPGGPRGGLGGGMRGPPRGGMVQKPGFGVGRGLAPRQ
Constant ends, left off below: GGGAGUUCUACAGUCCGACGAUC … UGGAAUUCUCGGGUGUCAAGG
| Sequence | log2 enrichment |
| --- | --- |
| AGUCCUGUGCUACACAUCGUAUGUACCGAAUCGGAAAAAGGGGAAAAAGGAAAAAGGAAAGUAUUAUGUUACGCCGUUCGGAUCUGCACU | -0.97 |
| CACAGACAACACGCACCCACACAGACACAGAGGGAAGGGGUUGGAAUGGGGACAGGGUGCACAGCAGGGCGGGGUAGGACCCCAGCCCCU | 1.86 |
| AGUCCUGUGCUACACAUCGUAUGUACCGAAUCGGGCCCCGGGGCCCCGGGCCCCGGGGAAAGUAUUAUGUUACGCCGUUCGGAUCUGCAC | 0.698 |
| CUCAAGUCCUGUGCUACACAUCGUAUGUACCGAAUCGGUUUGGUUUGGUUUGGAAAGUAUUAUGUUACGCCGUUCGGAUCUGCACUUCCA | -0.45 |
| CCUGUGCUACACAUCGUAUGUACCGAAUCGGGGAAAAAAAGGGGAAAAAGGGGUUUGGGGAAAGUAUUAUGUUACGCCGUUCGGAUCUGC | 0.267 |
| AGUCCUGUGCUACACAUCGUAUGUACCGAAUCGGGGUUUUUGGGGUUUGGGGAGGGGAAAGUAUUAUGUUACGCCGUUCGGAUCUGCACU | 0.654 |
| CCUGUGCUACACAUCGUAUGUACCGAAUCAAACCCCCCCAAAUUUUUUUAAAUUUUUAAAAAAGUAUUAUGUUACGCCGUUCGGAUCUGC | 0.239 |
| CCUGUGCUACACAUCGUAUGUACCGAAUCGGGAAAAAGGGAAAAAAAGGGAAAAAAAGGGAAAGUAUUAUGUUACGCCGUUCGGAUCUGC | -0.74 |
| AGUCCUGUGCUACACAUCGUAUGUACCGAAUCGGGGAAAAAGGAAAAAGGGAAAAAGGAAAGUAUUAUGUUACGCCGUUCGGAUCUGCAC | -0.809 |
| UAACUUUAGAGGAGGAUCUGAUGGAUAUGGCAGUGGACGUGGAUUUGGGGAUGGCUAUAAUGGGAAUGGAGGAGGACCUGGAGGUGGCAA | 0.362 |
| UGGCCCUGGUGGCAUGCGGGGAGGAAGAGGUGGCCUCAUGGAUCGUGGUGGUCCCAGUGGAAUGUUCAGAGGUGGCCGUGGUGGAGACAG | 0.147 |
| CACAGACAACACGCACCCACUCAGACACAGAGGGAAGGGGUUGGGAUGGGGACAGGGUGCACAGCAGGGCGGGGUAGGACCCCAGCCCCU | 2.01 |
| GUCCUGUGCUACACAUCGUAUGUACCGAAUCGGUUUUUUUGGUUUUUUUGGAAAAAGGAAAGUAUUAUGUUACGCCGUUCGGAUCUGCAC | -1.23 |
| UGGCCCUGGUGGCAUGCGGGGAGGAAGAGGUGGCCUCAUGGAUCGUGGUGGUCCCGGUGGAAUGUUCAGAGGUCGCCGUGGUGGAGACAG | -0.244 |

Sample 5 — method: protein binding microarray; form: double-stranded DNA, one strand shown; sample: in vitro; tested at: not given; reference: not given; reading: higher = stronger binding
Target: Histone acetyltransferase KAT6A, winged helix 1, GST fusion (KAT6A, Homo sapiens, UniProt Q92794, residues 1-85)
Notes: 8-mer, flanks averaged, mean of 2 arrays, mostly near background
Target sequence (chain): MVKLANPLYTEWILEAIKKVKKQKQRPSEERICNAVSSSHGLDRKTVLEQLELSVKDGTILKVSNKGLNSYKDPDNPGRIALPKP
| Sequence | E-score |
| --- | --- |
| CCGTCAAC | 0.144 |
| GGAGACAC | -0.14 |
| CAAAATAA | -0.217 |
| CGCGGGCA | 0.394 |
| ATGGACAC | -0.0985 |
| ACTCAGAA | -0.156 |
| CTCCAGAG | -0.0631 |
| AATTAGAA | -0.135 |
| CAAAAGTC | -0.0999 |
| AACGCCGT | 0.387 |
| GTAACCCA | 0.0337 |
| AGGCTCTA | -0.0816 |
| AGTATCTG | -0.171 |
| GGGACACC | 0.0835 |
| AAATGGGG | -0.237 |
| CCACTGTA | -0.148 |
| CGAAAGAG | -0.172 |
| AGGCCAAA | -0.183 |
| CTCGTTAC | -0.146 |
| GGCCATAC | 0.114 |
| AGGGCGCC | 0.232 |
| ATCGAAGA | -0.0206 |
| CTGTTAAC | 0.0473 |
| CAGCCCAA | -0.127 |
| AACTACTC | -0.016 |

Some of these lines once more (sample 1):
| Sequence | RBNS enrichment (R) |
| --- | --- |
| CGAGGUUUUAAAGGGUGCCAUGGGCUCUCACGUCCUUCGUGUUGCAGUAUUUAUUUUUACUGGGUGAGGAUUUUUCAACUUAACGUUUUAGGACUUAACCAAAUAACCAG | 0.409 |
| CCUGUCUGCCUGCCCAGCCAUGCUCCAUCGGCUGUGAGGGCAGUGCCCGGAGAGGCCAGAGGGUUGGAGCUGCAGGGACCCGUUUGGACCCACAGCCUCUGUUCUAGAGA | 0.582 |
| ACACCUCUCCCCACGCAGAGGGGGAAUUCUGCCCUGGUGAAACAGACACUCCAGACAUGGGAGAAGGACUUUCUGGGAACACAGAGACCAAGAGGGAGAGAGGCUUCAGA | 0.448 |
| CAGUGCCGUUAAUAAACUUUAGAUACAAACCAACAACCACCAUUCUCCAGUAUACUACAGUGGGAAUCACUGAUCUAGUUAACGGCAGCACUCUUGGAUUAAUUCAAUUG | 0.496 |
| GGGGCAGCCUGCUGUCCCUCCCACCUGCACAGUGAUGCUGUCUGGUGGGGCCUCGUGGUGCCUAGGAGAUGAAGAUGAGGUUUUCCUUACCGUGUAAAUGAAUAUUUGUA | 0.238 |
| AUGGCUUUACUUUGGCUGUCUUUUCUUCUGUCAUGUGCGAAGGGAGUUUGUAACUUUUGGAACCGGAGAGCCCUGUUUCUUUGGCUGGGCGGUUAUGGCAGCUGAAGGCA | 1.3 |
| UCAAAAUUAUAAUGCAGUUCUAAUGGUCAGCAUAUUUUGAUAUUAAAUUUAAAGAUCACCUCUCUGCAUUUGUUUUUAAAUUAUGCUAAUACACCACACAUUAUGUUGGU | 0.352 |
| UCUCACUACUGAGCACCGAUGUGUAUGAUACUACAGACUAUAUUAAAGUGGAGUAACAUUUCUUUCAUCUUUGUUUACACUCUCACUAGGACUCUGAACCAUGAUUGGAA | 0.33 |
